Measured values pooled from the literature.
A part holds a random share of what one study measured. Changes are numbered by the printed parent chain.

Sample 1 — target: CCNE1, cyclin fold, Cln2 fusion (human); technique: yeast growth competition, sequencing; medium: yeast; notes: strong parent motif; relative to: not given; direction: higher = stronger binding
Starting sequence: CDKN1B docking peptide (human); PSACRNLFGPVDH; partner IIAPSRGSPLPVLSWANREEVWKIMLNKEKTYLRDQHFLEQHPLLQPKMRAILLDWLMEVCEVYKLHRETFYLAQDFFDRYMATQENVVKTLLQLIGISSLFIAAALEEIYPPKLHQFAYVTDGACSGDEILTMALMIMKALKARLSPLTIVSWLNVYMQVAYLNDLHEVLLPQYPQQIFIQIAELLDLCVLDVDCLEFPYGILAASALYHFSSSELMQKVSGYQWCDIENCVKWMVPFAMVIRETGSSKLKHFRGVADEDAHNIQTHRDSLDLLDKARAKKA
Substitution | normalised enrichment score
ISACRNLFGPVDH [P1I] | 3.15
PSACRNLFTPVDH [G9T] | 1.39
PSACRNLEGPVDH [F8E] | -0.256
PSACRNRFGPVDH [L7R] | -0.0299

Sample 2 — technique: protein-binding microarray; form: double-stranded DNA, one strand shown; medium: in vitro; concentration: 2200 nM top; notes: 60-bp whole probe; together with: salmon DNA 0.4 mg/ml; relative to: random background probes; direction: higher = stronger binding; constant ends, left off below: GCCTAGCAC … GTCTTGATTCGCTTGACGCTGCTG
Target: Interferon regulatory factor 7, full length, phosphomimetic (IRF7, Homo sapiens, UniProt Q92985, residues 1-503, S471D/S472D/S475D/S476D/S477D/S483D/S484D/S487D)
Construct (chain): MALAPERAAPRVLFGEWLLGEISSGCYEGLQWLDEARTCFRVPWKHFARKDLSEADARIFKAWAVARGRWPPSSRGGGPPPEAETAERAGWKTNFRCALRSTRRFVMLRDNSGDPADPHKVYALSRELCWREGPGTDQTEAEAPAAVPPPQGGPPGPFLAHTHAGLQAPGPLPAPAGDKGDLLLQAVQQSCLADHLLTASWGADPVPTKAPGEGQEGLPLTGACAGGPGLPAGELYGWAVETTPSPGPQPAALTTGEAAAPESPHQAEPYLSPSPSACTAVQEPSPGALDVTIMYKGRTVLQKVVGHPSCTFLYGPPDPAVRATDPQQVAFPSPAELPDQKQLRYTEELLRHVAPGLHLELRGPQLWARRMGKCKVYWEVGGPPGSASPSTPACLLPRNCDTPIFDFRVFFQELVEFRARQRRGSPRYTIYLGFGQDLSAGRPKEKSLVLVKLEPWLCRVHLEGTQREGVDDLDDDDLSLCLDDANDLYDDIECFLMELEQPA
Strand | fitted relative affinity [z-score]
TTAGGTATCCTCCTCCTTTAGTGCTAG | 1.28
CTAAATATCTTTGTTGAAAAGTGCTAG | -0.156
CCCCATCTTGTTCCCAGAGAGTGCTAG | 1.18
GACGGTGCCCTTTTCCTGACGTGCTAG | 0.791
TTAGGTATCGACACTTGGTTAGTGCTA | 0.216
GGGAGATGACTAAGAGGGGTGTGCTAG | -0.903
GACGGTATCAGTCTCGGGACGTGCTAG | 0.117

Sample 3 — technique: RNA Bind-n-Seq; form: RNA; medium: in vitro; concentration: not given; relative to: input RNA pool; direction: higher = stronger binding
Target: RING finger protein unkempt homolog, zinc fingers 1-6, GST-SBP tag (UNK, Homo sapiens, UniProt Q9C0B0, residues 30-357)
Notes: RNA with constant flanks, human-mouse chimeric sites, ends assumed
Constant ends, left off below: GGGAGUUCUACAGUCCGACGAUC … CAACAGAGGAUUGAGCAUCA
Residues (chain): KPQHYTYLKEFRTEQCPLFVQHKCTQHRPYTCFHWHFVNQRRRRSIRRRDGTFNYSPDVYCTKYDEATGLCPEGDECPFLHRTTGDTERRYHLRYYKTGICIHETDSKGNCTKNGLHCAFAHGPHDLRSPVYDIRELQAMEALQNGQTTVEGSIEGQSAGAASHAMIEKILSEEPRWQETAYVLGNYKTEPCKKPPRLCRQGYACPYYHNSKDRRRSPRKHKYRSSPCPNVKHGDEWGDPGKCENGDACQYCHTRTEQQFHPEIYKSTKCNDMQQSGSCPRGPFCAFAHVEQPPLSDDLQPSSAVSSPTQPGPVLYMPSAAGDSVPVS
Strand | bound/input enrichment [ratio]
CACAGAGCAGCACCUACCCCCUCCUCCUUUCCACACCUGCAAACUCUUUUACUUGGGCUGAAUAUUUAGUGUUAAUUCAUCUCAGCUUUGAGGGCUCCUGUGGCAAAUUCCCGGAUUAAA | 0.751
UCUUUAAAUGCACUACAACCUUUUCUGACAGUGCUUUCCCUCCCAUAGAUCCACGUUCAAGCUCAAAGAGCAAAGGCUCCGCAAACAGCUCAAACAUCUGAUGAAGAAAGAUUUCUGAGA | 0.405
GGGGAGAAACCUUACGAGUGUGUGCAGUGUGGGAAAUCCUACAGUCAGAGCUCAAACCUCUUCAGACAUCAGAGAAGACACAAUGCAGAAAAACUUUUGAAUGUUGUGAAAGUUUAAGAA | 0.403
UAAGUCCAUUUGUAAGCCUUCGCUCAUAAAGUUUUAAAUUCUGGACCAAUAGUGUUUGUUUCCUGAUUAUUGUAUCCAAUACUUUAUCUAGUAUGUAACUCACUCUUACUGAUAAUAAAA | 0.93
GAUCAUGAACCACCAUCAGAAAUGAAGGAUGAGACUACCAGACGAGCCAAAACAGCUGCGCUACAGAAAAGUAAACUUAACCUUGCACCAAUUUCUCAUGAAGAUACAAGUUAAGAGAGC | 0.302
GAACCUGCUCUCUCUGAUGAAGAUGAGGAAGACAAUGAUGAUGUUGAACCCAUUUCUGAAUUUAGAUUUGUGCCCAGUGAUAAGUCAGCAUUGGAGGCGAUGUUCACAGCAAUGUGUGAG | 1.03
CGGAAGUGAUCCCCUGCUCAUUUUUCUCUUUUCUUUCUUUCCUUUAGGAAAAGCCUAAAGAUUAGGUUGUAAGAAAAACAGAAGCCAUGUUUCGAAGACCUGUGUUACAGGUAUUUCGUC | 0.0694
GUUGCCAGCUUCCGGUUGGCCUCCAUCCGGUUCUCUCCUGAGCUACGGUCCCUGGCACUCUCAAUCCGCCAUCCAACAAACAUGGAUCAGGUAAUGCAGUUUGUGGAGCCCAGCCGGCAG | 0.139
GAUCAUGAACCACCAUCAGAAAUGAAGAUGAGAUUACCCAGACGAGCCAAAACAGCUAGCACUAGAAAAAGUAAACUUUAACCUUGCGAGUUCCUUAAUGAAGAUACAAGUUAAGAGAGC | 3.19

Single results of other studies
Substance | target | test | system | setting | how to read | measurement | value
PhoQ, residues 284 288 289 292 302 303 SVTLVV | PhoP, residues 12 14 15 18 19 NQFFI (Escherichia coli, UniProt P23836) | Sort-seq, item: YFP reporter | E. coli | PhoQ-PhoP variant library, together with: 10 µM Mg2+ | relative to: high Mg2+ state, higher = stronger signaling | fold induction | 17.7

For quick reference, copied from above (sample 2):
Strand | fitted relative affinity [z-score]
CCCCATCTTGTTCCCAGAGAGTGCTAG | 1.18
GACGGTGCCCTTTTCCTGACGTGCTAG | 0.791
TTAGGTATCGACACTTGGTTAGTGCTA | 0.216
